Published values from different studies.
Lines come from different studies, so protocols differ. Numbers after ± are the reported error.
YWHAG/RELA phospho-Ser45 p65 peptide: YWHAG/RELA, phospho-Ser45 p65 peptide (Homo sapiens, UniProt P61981+Q04206)
UniProt Q04206, sequence (whole entry, looked up): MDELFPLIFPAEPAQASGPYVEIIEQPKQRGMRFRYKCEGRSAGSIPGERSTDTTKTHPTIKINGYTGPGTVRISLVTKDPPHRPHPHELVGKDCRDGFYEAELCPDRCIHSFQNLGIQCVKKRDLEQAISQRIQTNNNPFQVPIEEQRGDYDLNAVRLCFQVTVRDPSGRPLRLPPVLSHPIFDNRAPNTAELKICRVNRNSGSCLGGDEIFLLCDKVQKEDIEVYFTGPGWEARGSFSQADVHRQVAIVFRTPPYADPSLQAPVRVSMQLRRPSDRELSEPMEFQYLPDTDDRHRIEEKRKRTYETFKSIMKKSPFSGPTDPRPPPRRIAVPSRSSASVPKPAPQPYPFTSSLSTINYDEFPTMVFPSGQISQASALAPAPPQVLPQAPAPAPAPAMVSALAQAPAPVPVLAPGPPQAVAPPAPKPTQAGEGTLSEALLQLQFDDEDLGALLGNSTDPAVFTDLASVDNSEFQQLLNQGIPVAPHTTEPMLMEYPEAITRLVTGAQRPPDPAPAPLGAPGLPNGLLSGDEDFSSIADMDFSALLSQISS
UniProt P61981, sequence (whole entry, looked up): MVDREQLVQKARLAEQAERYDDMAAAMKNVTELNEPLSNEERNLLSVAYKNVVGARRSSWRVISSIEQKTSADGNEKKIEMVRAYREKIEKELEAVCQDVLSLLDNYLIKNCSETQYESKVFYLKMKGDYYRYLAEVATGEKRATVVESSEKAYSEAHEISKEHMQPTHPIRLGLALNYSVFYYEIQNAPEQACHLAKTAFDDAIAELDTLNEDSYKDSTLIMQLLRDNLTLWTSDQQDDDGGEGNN
Nuclear receptor subfamily 2 group C member 2 ligand-binding domain: Nuclear receptor subfamily 2 group C member 2, ligand-binding domain (Homo sapiens, UniProt P49116)
UniProt P49116, sequence (whole entry, looked up): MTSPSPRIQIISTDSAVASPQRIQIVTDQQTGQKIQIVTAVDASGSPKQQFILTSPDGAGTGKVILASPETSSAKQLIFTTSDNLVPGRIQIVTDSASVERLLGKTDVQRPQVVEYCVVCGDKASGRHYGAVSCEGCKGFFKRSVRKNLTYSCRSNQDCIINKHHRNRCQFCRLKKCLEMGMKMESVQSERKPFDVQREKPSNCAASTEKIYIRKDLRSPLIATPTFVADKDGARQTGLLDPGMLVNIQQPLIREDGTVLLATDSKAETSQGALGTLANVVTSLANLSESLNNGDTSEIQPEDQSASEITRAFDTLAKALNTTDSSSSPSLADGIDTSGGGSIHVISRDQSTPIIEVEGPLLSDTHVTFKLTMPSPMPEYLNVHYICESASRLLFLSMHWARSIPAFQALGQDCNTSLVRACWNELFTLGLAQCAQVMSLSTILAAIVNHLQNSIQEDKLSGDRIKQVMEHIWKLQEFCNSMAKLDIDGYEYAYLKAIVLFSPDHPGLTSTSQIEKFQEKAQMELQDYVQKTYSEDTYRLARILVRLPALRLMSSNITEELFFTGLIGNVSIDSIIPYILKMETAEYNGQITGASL
ADRA2A: Alpha-2A adrenergic receptor (ADRA2A, Homo sapiens, UniProt P08913)
UniProt P08913, sequence (whole entry, looked up): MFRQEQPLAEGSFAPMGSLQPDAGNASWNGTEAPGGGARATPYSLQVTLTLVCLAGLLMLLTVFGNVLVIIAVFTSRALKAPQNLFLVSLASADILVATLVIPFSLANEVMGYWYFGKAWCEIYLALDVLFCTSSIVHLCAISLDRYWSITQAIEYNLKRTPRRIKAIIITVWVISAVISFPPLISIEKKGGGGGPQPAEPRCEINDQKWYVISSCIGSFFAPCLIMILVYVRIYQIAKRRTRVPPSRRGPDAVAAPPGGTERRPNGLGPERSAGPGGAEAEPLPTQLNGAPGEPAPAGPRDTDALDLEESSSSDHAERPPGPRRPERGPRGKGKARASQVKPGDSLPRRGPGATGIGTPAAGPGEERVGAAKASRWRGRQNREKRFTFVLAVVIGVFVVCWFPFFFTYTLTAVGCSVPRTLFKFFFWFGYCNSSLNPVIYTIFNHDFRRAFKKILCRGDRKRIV
UniProt Q9H3N8, sequence (whole entry, looked up): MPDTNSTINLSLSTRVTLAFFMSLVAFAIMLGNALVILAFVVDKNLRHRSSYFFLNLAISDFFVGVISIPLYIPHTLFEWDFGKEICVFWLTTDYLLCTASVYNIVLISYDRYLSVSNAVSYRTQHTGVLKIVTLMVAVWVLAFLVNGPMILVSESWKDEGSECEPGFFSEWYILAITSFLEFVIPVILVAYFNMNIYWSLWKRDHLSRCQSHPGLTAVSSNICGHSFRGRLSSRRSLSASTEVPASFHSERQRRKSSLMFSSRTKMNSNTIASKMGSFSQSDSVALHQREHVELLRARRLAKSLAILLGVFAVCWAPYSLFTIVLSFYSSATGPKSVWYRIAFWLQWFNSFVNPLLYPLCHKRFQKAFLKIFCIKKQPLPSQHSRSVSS
UniProt P53341, sequence (whole entry, looked up): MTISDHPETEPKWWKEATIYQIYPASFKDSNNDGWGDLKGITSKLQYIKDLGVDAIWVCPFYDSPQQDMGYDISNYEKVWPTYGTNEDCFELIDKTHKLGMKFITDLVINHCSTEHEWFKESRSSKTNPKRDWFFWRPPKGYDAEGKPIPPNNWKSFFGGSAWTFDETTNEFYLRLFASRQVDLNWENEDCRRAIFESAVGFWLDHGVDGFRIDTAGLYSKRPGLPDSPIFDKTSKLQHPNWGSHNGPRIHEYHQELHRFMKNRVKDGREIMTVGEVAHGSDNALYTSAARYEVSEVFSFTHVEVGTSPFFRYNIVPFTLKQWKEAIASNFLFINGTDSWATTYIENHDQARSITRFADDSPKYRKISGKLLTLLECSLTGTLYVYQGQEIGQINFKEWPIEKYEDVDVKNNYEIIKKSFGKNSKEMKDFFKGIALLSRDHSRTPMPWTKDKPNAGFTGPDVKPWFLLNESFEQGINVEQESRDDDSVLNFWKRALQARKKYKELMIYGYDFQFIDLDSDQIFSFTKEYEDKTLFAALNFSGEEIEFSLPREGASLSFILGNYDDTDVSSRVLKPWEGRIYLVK
UniProt P34995, sequence (whole entry, unmodified, looked up): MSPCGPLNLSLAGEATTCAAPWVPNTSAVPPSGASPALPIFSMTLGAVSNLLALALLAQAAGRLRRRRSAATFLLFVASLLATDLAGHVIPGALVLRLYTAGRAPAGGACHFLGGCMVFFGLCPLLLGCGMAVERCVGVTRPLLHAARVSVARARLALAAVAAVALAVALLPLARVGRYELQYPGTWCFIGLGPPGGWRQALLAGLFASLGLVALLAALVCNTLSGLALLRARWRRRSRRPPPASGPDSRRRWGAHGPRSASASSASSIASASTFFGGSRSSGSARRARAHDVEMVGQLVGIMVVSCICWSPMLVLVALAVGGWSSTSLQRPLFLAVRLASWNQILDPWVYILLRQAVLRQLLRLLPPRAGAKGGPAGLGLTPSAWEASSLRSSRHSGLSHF
UniProt P13569, sequence (whole entry, unmodified, looked up): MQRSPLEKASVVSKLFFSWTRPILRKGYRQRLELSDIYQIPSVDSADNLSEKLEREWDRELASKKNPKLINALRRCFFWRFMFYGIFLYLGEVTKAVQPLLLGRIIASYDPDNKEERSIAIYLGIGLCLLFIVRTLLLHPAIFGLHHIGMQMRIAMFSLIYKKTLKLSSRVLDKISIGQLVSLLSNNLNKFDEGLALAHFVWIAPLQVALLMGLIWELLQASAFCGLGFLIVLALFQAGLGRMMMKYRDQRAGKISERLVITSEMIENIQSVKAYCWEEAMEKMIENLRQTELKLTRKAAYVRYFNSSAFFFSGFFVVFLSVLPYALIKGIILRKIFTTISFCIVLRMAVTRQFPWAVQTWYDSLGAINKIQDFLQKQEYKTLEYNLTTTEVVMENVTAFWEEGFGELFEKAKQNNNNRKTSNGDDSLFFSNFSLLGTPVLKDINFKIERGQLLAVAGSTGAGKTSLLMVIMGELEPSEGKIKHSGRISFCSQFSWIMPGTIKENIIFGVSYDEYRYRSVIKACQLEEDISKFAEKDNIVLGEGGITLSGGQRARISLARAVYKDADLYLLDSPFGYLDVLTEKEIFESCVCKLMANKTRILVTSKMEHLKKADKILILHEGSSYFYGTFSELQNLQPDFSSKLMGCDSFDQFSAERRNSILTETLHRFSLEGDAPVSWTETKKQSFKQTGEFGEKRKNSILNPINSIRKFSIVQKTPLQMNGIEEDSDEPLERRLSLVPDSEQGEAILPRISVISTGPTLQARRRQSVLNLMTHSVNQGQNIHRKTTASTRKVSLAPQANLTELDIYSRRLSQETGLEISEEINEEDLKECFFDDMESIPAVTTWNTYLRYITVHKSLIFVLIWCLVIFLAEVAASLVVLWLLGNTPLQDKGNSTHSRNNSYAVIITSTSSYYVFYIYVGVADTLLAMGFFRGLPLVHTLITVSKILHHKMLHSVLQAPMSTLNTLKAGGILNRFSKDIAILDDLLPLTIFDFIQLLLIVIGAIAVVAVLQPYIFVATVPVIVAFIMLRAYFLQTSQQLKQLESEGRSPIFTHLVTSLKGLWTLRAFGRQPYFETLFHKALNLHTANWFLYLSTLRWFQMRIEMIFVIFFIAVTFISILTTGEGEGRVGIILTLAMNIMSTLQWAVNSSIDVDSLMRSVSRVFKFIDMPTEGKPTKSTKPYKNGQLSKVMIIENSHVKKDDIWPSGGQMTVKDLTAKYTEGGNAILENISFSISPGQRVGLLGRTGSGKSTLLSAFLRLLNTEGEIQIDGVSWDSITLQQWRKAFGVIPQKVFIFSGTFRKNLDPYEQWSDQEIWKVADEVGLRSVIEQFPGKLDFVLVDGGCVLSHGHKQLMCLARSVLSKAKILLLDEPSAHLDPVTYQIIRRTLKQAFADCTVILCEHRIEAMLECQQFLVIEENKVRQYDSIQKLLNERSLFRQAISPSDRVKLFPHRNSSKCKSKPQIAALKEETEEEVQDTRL
UniProt P11086, sequence (whole entry, looked up): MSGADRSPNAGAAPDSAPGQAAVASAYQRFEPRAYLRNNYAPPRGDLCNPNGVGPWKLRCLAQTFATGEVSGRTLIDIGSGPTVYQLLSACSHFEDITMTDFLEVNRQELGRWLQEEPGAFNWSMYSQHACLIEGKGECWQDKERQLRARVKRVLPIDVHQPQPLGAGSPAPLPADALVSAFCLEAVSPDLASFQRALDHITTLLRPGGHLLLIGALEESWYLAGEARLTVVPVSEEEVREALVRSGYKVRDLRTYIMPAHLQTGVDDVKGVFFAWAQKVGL

With `CC(NC(=O)c1ccccc1/N=C/c1c(O)ccc2ccccc12)c1ccccc1` (centres unmarked) the viability was 88.6% (OCI-Ly1; 0.5 µM, 120 h).
The EC50 of `Cc1cc(C(=O)Oc2cc(C=O)ccc2[N+](=O)[O-])c(C)o1` is reported as greater than 1000 µM (YWHAG/RELA phospho-Ser45 p65 peptide; ternary complex formation, stabilizer, fluorescence anisotropy).
`COc1cc(/C=C/C(=O)N2CCN(CC(=O)N3CCCC3)CC2)cc(OC)c1OC` has a Kd of 0.157 nM (Nuclear receptor subfamily 2 group C member 2 ligand-binding domain; SPR imaging).
The EC50 of `CN(C)C1CCN(c2cc(C=O)ccc2[N+](=O)[O-])CC1` is reported as greater than 1000 µM (YWHAG/RELA phospho-Ser45 p65 peptide; ternary complex formation, stabilizer, fluorescence anisotropy).
`COc1ccc(-c2nn(-c3ccccc3)cc2C2C(C(C)=O)=C(C)n3c(=O)c4ccccc4c(=O)n32)cc1` (centres unmarked) has a Ki of 34.8 µM (Alpha-glucosidase MAL12 (MAL12, Saccharomyces cerevisiae S288c, UniProt P53341); Lineweaver-Burk secondary plot).
The Ki of `O=c1n(CCCN2CCN(c3cccc(Cl)c3)CC2)nc2ccccn12` is reported as greater than 10 µM (Histamine H4 receptor (HRH4, Homo sapiens, UniProt Q9H3N8)).
`Nc1ncnc2c1ncn2[C@@H]1O[C@H](C[C@@H](N)CC[C@H](N)C(=O)O)[C@@H](O)[C@H]1O` has a Ki of 16.7 ± 4.3 µM (Phenylethanolamine N-methyltransferase (PNMT, Homo sapiens, UniProt P11086); enzyme activity, inhibitor, coupled-enzyme).
For `N#CC1CCN(c2cc(C=O)ccc2[N+](=O)[O-])CC1`, the EC50 was greater than 1000 µM (YWHAG/RELA phospho-Ser45 p65 peptide; ternary complex formation, stabilizer, fluorescence anisotropy).
`Nc1ccn([C@@H]2CS[C@H](CO)O2)c(=O)n1` gave a Kd of 15.9 nM (Nuclear receptor subfamily 2 group C member 2 ligand-binding domain; SPR imaging).
`O=C(COP(=O)(O)O)[C@@H](O)[C@H](O)[C@H](O)COP(=O)(O)O` has an AC50 of 0.0381 ± 0.0031 µM (Pyruvate kinase PKM (PKM, Homo sapiens, UniProt P14618); enzyme activity, activator; HeLa cell lysate; with: 0.2 mM PEP, 2 mM ADP).
For `COC1CCCN(c2cc(C=O)ccc2[N+](=O)[O-])C1` (centres unmarked), the EC50 was greater than 1000 µM (YWHAG/RELA phospho-Ser45 p65 peptide; ternary complex formation, stabilizer, fluorescence anisotropy).
With `Cc1cc(Oc2ncccc2CN2CCN(c3ccccc3Cl)CC2)ccc1-c1c(C)c(=O)[nH]c(=O)n1C` the Ki was 0.0795 µM (ADRA2A; inhibitor, radioligand binding; with: [3H]rauwolscine).
With `CCCCC[C@H](O)/C=C/[C@H]1[C@H](O)CC(=O)[C@@H]1C/C=C\CCCC(=O)O` the EC50 was 0.0586 µM (Prostaglandin E2 receptor EP1 subtype (PTGER1, Homo sapiens, UniProt P34995, F334L); IP1 accumulation, agonist; AD293).
`CC[C@@H]1[C@H](F)C(=O)N[C@@H]1COc1nccc2cc(C(N)=O)c(OC)cc12` has an IC50 of greater than 5 µM (MAP/microtubule affinity-regulating kinase 4 (MARK4, Homo sapiens, UniProt Q96L34); ATP-site probe binding, ActivX profiling; THP-1 cell lysate; Lys2 site).
The EC50 of `O=Cc1ccc([N+](=O)[O-])c(N2CCC(O)CC2)c1` is reported as greater than 1000 µM (YWHAG/RELA phospho-Ser45 p65 peptide; ternary complex formation, stabilizer, fluorescence anisotropy).
`Cc1ccccc1C(=O)Nc1ccc(C(=O)N2CCCC(O)c3cc(Cl)ccc32)c(C)c1` (centres unmarked) has a Kd of 0.0538 nM (Nuclear receptor subfamily 2 group C member 2 ligand-binding domain; SPR imaging).
The Ki of `CNC(=O)[C@@]12C[C@@H]1[C@@H](n1cnc3c(NC)nc(C#Cc4cnccn4)nc31)[C@H](O)[C@@H]2O` is reported as 1 to 10 µM (ADRA2A; radioligand binding (PDSP)).
The Kd of `COc1cc(C(=O)NS(=O)(=O)c2ccccc2C)ccc1Cc1cn(C)c2ccc(NC(=O)OC3CCCC3)cc12` is reported as 0.2 nM (Nuclear receptor subfamily 2 group C member 2 ligand-binding domain; SPR imaging).
`Cc1ncsc1-c1ccc([C@H](CC(=O)N2CCN(c3ccc(C#Cc4ccc(C(=O)N5CCC(n6cc(-c7ccc8c(c7)CCN8C(=O)Cc7cccc(OC(F)(F)F)c7)c7c(N)ncnc76)CC5)cc4)cn3)CC2)NC(=O)[C@@H]2C[C@@H](O)CN2C(=O)[C@@H](NC(=O)C2(F)CC2)C(C)(C)C)cc1` gave a DC50 of 0.0026 µM (Receptor-interacting serine/threonine-protein kinase 1 (RIPK1, Homo sapiens, UniProt Q13546); degrader, western blot; Jurkat; 24 h).
The viability of `O=C(/C=C/C#Cc1cccc(NS(=O)(=O)c2ccccc2)c1)NO` is reported as 142% (OCI-Ly1; 0.1 µM, 120 h).
The EC50 of `CC(=O)N1CCN(S(=O)(=O)c2ccc(C=O)cc2)CC1` is reported as greater than 1000 µM (YWHAG/RELA phospho-Ser45 p65 peptide; ternary complex formation, stabilizer, fluorescence anisotropy).
For `O=C(O)c1cc(/N=N/c2ccc(O)c(C(=O)O)c2)ccc1O`, the Kd was 0.0321 nM (Nuclear receptor subfamily 2 group C member 2 ligand-binding domain; SPR imaging).
With `CC1(C)Cc2c(sc(NC(=O)c3ccn[nH]3)c2C(N)=O)C(C)(C)O1` the EC50 was 2.06 ± 0.2 µM (Cystic fibrosis transmembrane conductance regulator (CFTR, Homo sapiens, UniProt P13569, D924R/R347D); channel current, activator, inside-out patch clamp; CHO cells, transfected).
For `O=C(O)Cc1ccccc1Nc1c(Cl)cccc1Cl`, the Kd was 0.736 nM (Nuclear receptor subfamily 2 group C member 2 ligand-binding domain; SPR imaging).
`O=Cc1ccc([N+](=O)[O-])c(N2CCC(CCO)CC2)c1` has an EC50 of greater than 1000 µM (YWHAG/RELA phospho-Ser45 p65 peptide; ternary complex formation, stabilizer, fluorescence anisotropy).
`COc1ccc2cc(CCC(C)=O)ccc2c1` has a Kd of 0.466 nM (Nuclear receptor subfamily 2 group C member 2 ligand-binding domain; SPR imaging).
The EC50 of `CC(C)N1CCN(c2cc(C=O)ccc2[N+](=O)[O-])CC1` is reported as greater than 1000 µM (YWHAG/RELA phospho-Ser45 p65 peptide; ternary complex formation, stabilizer, fluorescence anisotropy).
For `Oc1ccc(OCc2ccccc2)cc1`, the Kd was 20.1 nM (Nuclear receptor subfamily 2 group C member 2 ligand-binding domain; SPR imaging).
With `CN1CC2c3ccccc3Oc3ccc(Cl)cc3C2C1` (centres unmarked) the EC50 was 0.0092 µM (5-hydroxytryptamine receptor 1A (HTR1A, Homo sapiens, UniProt P08908, A222V); agonist).

A few entries again:
`Cc1ncsc1-c1ccc([C@H](CC(=O)N2CCN(c3ccc(C#Cc4ccc(C(=O)N5CCC(n6cc(-c7ccc8c(c7)CCN8C(=O)Cc7cccc(OC(F)(F)F)c7)c7c(N)ncnc76)CC5)cc4)cn3)CC2)NC(=O)[C@@H]2C[C@@H](O)CN2C(=O)[C@@H](NC(=O)C2(F)CC2)C(C)(C)C)cc1` gave a DC50 of 0.0026 µM (Receptor-interacting serine/threonine-protein kinase 1 (RIPK1, Homo sapiens, UniProt Q13546); degrader, western blot; Jurkat; 24 h).
The viability of `O=C(/C=C/C#Cc1cccc(NS(=O)(=O)c2ccccc2)c1)NO` is reported as 142% (OCI-Ly1; 0.1 µM, 120 h).
The EC50 of `CC(=O)N1CCN(S(=O)(=O)c2ccc(C=O)cc2)CC1` is reported as greater than 1000 µM (YWHAG/RELA phospho-Ser45 p65 peptide; ternary complex formation, stabilizer, fluorescence anisotropy).
For `O=C(O)c1cc(/N=N/c2ccc(O)c(C(=O)O)c2)ccc1O`, the Kd was 0.0321 nM (Nuclear receptor subfamily 2 group C member 2 ligand-binding domain; SPR imaging).
